Experimental data collected from several papers.
Parts stem from different laboratories: compare values within a part only.
Chain of UniProt Q00534 (whole entry, looked up): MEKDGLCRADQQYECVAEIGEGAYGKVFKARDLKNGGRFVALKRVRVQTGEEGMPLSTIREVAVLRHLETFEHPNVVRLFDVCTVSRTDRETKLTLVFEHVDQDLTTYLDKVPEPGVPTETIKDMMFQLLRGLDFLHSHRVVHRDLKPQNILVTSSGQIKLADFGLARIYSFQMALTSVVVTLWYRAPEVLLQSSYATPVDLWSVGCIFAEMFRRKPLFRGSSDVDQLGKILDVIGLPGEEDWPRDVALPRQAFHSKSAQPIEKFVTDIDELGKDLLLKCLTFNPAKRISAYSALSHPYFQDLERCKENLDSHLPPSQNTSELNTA
Chain of UniProt Q9H3Y6 (whole entry, looked up): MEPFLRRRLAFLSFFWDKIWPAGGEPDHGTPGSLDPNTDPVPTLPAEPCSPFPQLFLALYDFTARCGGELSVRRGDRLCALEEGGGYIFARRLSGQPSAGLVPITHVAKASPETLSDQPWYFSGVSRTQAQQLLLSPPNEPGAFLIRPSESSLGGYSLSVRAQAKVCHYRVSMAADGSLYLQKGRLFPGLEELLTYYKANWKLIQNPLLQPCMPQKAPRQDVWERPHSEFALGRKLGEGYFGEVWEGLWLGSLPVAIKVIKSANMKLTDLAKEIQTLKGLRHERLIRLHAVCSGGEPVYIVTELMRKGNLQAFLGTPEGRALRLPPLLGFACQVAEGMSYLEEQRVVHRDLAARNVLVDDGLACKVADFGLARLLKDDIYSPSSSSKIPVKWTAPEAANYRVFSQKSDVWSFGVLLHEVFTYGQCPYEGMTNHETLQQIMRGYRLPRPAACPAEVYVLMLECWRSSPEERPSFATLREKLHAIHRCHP
Chain of UniProt P11802 (whole entry, looked up): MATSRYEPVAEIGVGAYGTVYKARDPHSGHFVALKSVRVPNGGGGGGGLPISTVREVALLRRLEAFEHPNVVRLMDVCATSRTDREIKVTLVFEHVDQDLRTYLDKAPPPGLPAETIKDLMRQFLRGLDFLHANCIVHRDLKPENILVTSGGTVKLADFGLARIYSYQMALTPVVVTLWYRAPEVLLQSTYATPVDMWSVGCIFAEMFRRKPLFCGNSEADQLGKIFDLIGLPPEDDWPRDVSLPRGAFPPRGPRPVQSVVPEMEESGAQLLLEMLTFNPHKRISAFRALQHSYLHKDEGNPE
Chain of UniProt O95819 (whole entry, looked up): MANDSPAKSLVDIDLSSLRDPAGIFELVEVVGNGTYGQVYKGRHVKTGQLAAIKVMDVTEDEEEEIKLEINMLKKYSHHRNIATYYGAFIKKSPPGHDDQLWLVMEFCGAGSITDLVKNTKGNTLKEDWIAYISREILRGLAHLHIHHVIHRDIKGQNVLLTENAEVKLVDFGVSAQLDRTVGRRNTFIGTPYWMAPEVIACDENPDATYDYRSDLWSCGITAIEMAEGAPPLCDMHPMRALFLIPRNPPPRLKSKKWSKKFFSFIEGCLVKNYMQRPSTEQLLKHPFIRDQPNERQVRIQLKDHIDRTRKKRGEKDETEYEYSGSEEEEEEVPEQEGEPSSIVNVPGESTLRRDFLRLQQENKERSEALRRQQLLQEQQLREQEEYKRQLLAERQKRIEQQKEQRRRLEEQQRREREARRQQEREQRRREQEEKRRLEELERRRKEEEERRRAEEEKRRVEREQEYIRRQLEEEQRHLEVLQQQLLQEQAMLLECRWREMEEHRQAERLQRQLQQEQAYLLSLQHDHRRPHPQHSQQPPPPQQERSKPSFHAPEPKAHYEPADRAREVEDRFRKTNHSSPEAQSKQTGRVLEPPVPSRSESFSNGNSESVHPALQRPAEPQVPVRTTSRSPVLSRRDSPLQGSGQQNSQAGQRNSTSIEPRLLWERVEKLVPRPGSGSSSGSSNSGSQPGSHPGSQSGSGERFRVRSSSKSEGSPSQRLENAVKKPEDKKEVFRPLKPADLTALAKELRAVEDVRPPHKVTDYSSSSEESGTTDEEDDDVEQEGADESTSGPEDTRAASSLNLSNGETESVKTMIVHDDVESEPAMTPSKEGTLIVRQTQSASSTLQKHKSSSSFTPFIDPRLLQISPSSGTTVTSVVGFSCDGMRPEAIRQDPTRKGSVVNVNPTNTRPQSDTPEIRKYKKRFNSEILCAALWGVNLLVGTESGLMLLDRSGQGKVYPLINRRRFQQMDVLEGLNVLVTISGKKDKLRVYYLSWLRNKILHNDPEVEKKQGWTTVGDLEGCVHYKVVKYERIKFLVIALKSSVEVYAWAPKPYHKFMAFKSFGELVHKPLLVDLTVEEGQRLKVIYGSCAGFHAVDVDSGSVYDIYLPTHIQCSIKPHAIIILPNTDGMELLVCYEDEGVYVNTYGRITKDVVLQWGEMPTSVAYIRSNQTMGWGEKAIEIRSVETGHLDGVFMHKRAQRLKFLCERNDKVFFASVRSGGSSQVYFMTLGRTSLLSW

Block 1 — method: RNA Bind-n-Seq; form: RNA; medium: in vitro; tested at: 20 nM; setting: 6-mer, flanks averaged, single round; together with: 150 mM KCl; relative to: input library; direction: higher = stronger binding; measurement: 6-mer enrichment (R)
Target: TAR DNA-binding protein 43, full length, His tag (TARDBP, Homo sapiens, UniProt Q13148, residues 1-414)
Sequence = AACUAC; result = 0.612
Sequence = CAAGGU; result = 0.838
Sequence = CGCGCC; result = 0.825
Sequence = UGCGAC; result = 0.824
Sequence = CUCUGC; result = 0.608
Sequence = UUGCUA; result = 0.631
Sequence = ACCGUG; result = 0.85
Sequence = UGAGUU; result = 0.791

Block 2 — method: RNA Bind-n-Seq; form: RNA; medium: in vitro; tested at: 90 pmol; setting: 4-mer, random 30-nt RNA, single round; relative to: input library; direction: higher = stronger binding; measurement: 4-mer enrichment
Target: Eukaryotic initiation factor 4A-I (EIF4A1, Homo sapiens, UniProt P60842, residues 1-406, full length assumed)
Chain of UniProt P60842 (whole entry, looked up): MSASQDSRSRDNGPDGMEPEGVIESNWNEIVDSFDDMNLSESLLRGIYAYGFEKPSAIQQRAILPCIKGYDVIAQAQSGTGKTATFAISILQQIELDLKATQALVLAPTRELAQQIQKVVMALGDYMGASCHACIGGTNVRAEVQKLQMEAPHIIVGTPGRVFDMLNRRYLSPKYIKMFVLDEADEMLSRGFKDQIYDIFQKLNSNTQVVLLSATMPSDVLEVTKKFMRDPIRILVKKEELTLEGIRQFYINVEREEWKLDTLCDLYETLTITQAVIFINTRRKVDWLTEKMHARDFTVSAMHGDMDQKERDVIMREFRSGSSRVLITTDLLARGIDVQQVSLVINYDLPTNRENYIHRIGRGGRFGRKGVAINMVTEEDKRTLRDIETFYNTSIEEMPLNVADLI
Together with: 3 µM iPr-DMDA-PatA, 2 mM ADP, 2 mM phosphate
Sequence = GAGU; result = 1.09 fold
Sequence = AUAC; result = 1.27 fold
Sequence = CUAG; result = 0.971 fold
Sequence = CUUG; result = 0.849 fold
Sequence = AGGA; result = 1.09 fold
Sequence = GCUA; result = 0.926 fold
Sequence = GAAA; result = 1.49 fold
Sequence = UGAA; result = 1.31 fold

Block 3 — Structure (SMILES): CC(=O)c1ccc(N2CCOCC2)cc1O; read-out: enzyme activity; mode: inhibitor; tested at: 0.5 µM; relative to: control; measurement: remaining activity
target = SRMS (Homo sapiens, UniProt Q9H3Y6); result = 94.7%
target = Cyclin-dependent kinase 4, with cyclin D3 (CDK4, Homo sapiens, UniProt P11802); result = 96.4%
target = MAP4K4 (Homo sapiens, UniProt O95819); result = 96.9%
target = Cyclin-dependent kinase 6, with cyclin D3 (CDK6, Homo sapiens, UniProt Q00534); result = 97.4%

Further values, each from its own experiment
Compound = O=C(NCCN1CCOCC1)c1ccc2c(c1)C(=O)c1ccc(Nc3ccc(F)c(NC(=O)c4ccccc4)c3)cc1CC2; cell line = HEK293T; method = high-content imaging; tested at = concentration not given; time = 24 h; setting = recommended concentration; measurement = increased mitochondrial mass; result = 84%

Some of these lines once more (block 2):
Sequence = CUAG; result = 0.971 fold
Sequence = CUUG; result = 0.849 fold
Sequence = AGGA; result = 1.09 fold
